Results gathered from unrelated publications.
Each line is one published result; not all experiments were run side by side. Several values in a cell are separate wells, animals, samples, runs or records. ± marks the error that the study gave.

Compound | cell line | test | setting | how to read | endpoint | result
CCCCCOc1ccc(/C=C\c2cccc(O)c2C(=O)O)cc1 | OCI-Ly1 |  | 0.5 µM, 120 h |  | viability | 152%
Cc1cc(Nc2ncc(Cl)c(Nc3ccccc3S(=O)(=O)C(C)C)n2)c(OC(C)C)cc1C1CCNCC1 | CLB-GE | phosphoproteomics LC-MS/MS, item: IWS1 phosphorylation | 200 nM, 60 min | baseline: untreated | log2 fold change | -1.93
Cc1cccc(-c2[nH]c(CNc3ccccc3F)nc2-c2ccc3ncnn3c2)n1 | pomalidomide-resistant MM1.S cells | XTT | 2.5 µM | higher = more viable cells | XTT absorbance | 1.1 E-1 and 1.4 E-1 and 0.8 E-1
COc1cc(/C=C/C(=O)N2CCC=CC2=O)cc(OC)c1OC | MDA-MB-468 | quantitative RT-PCR, item: IDH2 | 30 µM, 8 h | baseline: untreated cells | mRNA level | 83.9 ± 1.8%
C=CC1=C(C)c2cc3[n-]c(cc4nc(cc5[n-]c(cc1n2)c(C)c5C=C)C(C)=C4CCC(=O)O)c(CCC(=O)O)c3C.[Zn+2] | SH-SY5Y | RNA-seq, item: SYT12 mRNA | 5 µM, 5 h | baseline: untreated cells | fold change | 2.94
Cn1cc(-c2ccc(-c3cncc(Cl)c3N3CCC4(CCNC4=O)CC3)cc2)cn1 | COLO 205 | gene expression, microarray, item: PLOD1 mRNA | concentration not given, 6 h | baseline: untreated cells | log2 fold change | 2.17
C[C@H]1[C@H](C)CC[C@]2(C)CC[C@]3(C)C(=CC(=O)[C@@H]4[C@@]5(C)CC[C@@H](O)[C@](C)(C(=O)NCc6cn(-c7cccc(Br)c7)nn6)[C@@H]5CC[C@]43C)[C@H]12 | human PBMCs | flow cytometry | 10 µM | baseline: CD8- T cells | PD-1 positive cells | 8.23%
O=c1[nH]nc(OCCCc2ccc(Cl)cc2)c(NCc2cccnc2)c1Br | HEK-293T | RNA-seq GSEA, item: HALLMARK_EPITHELIAL_MESENCHYMAL_TRANSITION | concentration not given | direction not given | normalized enrichment score | -1.16
O=C(O)CCNc1cc(N2CCc3ccccc3CC2)nc(-c2ccccn2)n1 | OCI-Ly1 |  | 0.1 µM, 120 h |  | viability | 124%
COc1cc2ncnc(Nc3ccc(Oc4ccccc4)cc3C)c2cc1OC.O=C(O)C(F)(F)F | LoVo (KRAS G13D) | cell viability | concentration not given, 72 h, with: trametinib | direction not given | Bliss synergy score | 249%
O=C(C[C@@H](C(F)F)n1ccc(F)n1)N1CCC(O)(Cn2cnc3c(cnn3-c3ccc(F)cc3)c2=O)CC1 | CHP-212 parental | PI flow cytometry | 0.1 µM, 24 h |  | S phase cells | 19.4%
C=C1C(=O)O[C@H]2[C@H]1[C@H](OC(=O)/C(C)=C\C)CC(=C)[C@@H]1[C@H](O)[C@H]3O[C@@]3(C)[C@@]12O | iPSC-derived cardiomyocytes | concentration-response curve, item: MyBP-C protein level |  |  | EC50 | 54100 nM
CCn1cc(-c2cc(Cn3ccoc3=N)cc3c2CCN([C@@H](C)c2cc(OC)ccn2)C3=O)c(C(F)(F)F)n1 | SW900 | cell growth, inhibitor | 120 h |  | EC50 | 37.3 nM
O=C(CCCN1C(=O)c2cccc3cccc(c23)C1=O)NO | OCI-Ly1 |  | 1 µM, 120 h |  | viability | 74.5%
[Cl-].[Cl-].[Ru+2].c1cnc2c(c1)ccc1cccnc12.c1cnc2c(c1)ccc1cccnc12.c1csc(-c2ccc(-c3ccc(-c4nc5c6cccnc6c6ncccc6c5[nH]4)s3)s2)c1 | SK-MEL-28 | photocytotoxicity, resazurin | visible light, normoxia |  | EC50 | 64 nM
C#Cc1cccc(Nc2ncnc3cc(OC)c(OCCCCCCC(=O)NO)cc23)c1 | OCI-Ly1 |  | 1 µM, 120 h |  | viability | 9.74%
FC(F)(F)Oc1ccc(CNc2ccc3nc(S)[nH]c3c2)cc1 | sample A patient iPSC-derived NPCs | MTS | 10 µM, 24 h |  | reduction in viability | 5%
Nc1ncnc2c1ncn2[C@@H]1C=C(CO)[C@@H](O)[C@H]1O | OCI-Ly1 |  | 0.1 µM, 120 h |  | viability | 9.73%
CN(C)c1ccc(C(=C2C=CC(=[N+](C)C)C=C2)c2ccc(N(C)C)cc2)cc1 | iPSC-derived cardiomyocytes | concentration-response fit |  | baseline: vehicle | fitted bottom MyBP-C/MYH ratio | 0%
CCCOc1ccn2c(C(C)=O)cc(-c3ccccc3S(C)(=O)=O)c2c1 | OCI-Ly1 |  | 1 µM, 120 h |  | viability | 66.8%
COc1cnc2cccc(N3CCc4c(cc(Cn5ccnc5C)cc4-c4cn(C)nc4C(F)(F)F)C3=O)c2c1 | JHH7 | cell growth, inhibitor | 120 h |  | EC50 | > 30000 nM
Cc1cc(C)c(CNC(=O)c2cc(-c3ccc(CN4CCOCC4)cc3)cc3c2cnn3C2CCCC2)c(=O)[nH]1 | OCI-Ly1 |  | 0.1 µM, 120 h |  | viability | 187%
Cc1cc(=O)[nH]n1-c1nc(-c2ccc(Cl)cc2)c2c(NC(=O)c3ccccc3)nnc-2[nH]1 | 786-0 | NCI60 SRB | 10 µM |  | growth percent | 102%

Excerpt of the above:
Compound | cell line | test | setting | how to read | endpoint | result
COc1cnc2cccc(N3CCc4c(cc(Cn5ccnc5C)cc4-c4cn(C)nc4C(F)(F)F)C3=O)c2c1 | JHH7 | cell growth, inhibitor | 120 h |  | EC50 | > 30000 nM
Cc1cc(C)c(CNC(=O)c2cc(-c3ccc(CN4CCOCC4)cc3)cc3c2cnn3C2CCCC2)c(=O)[nH]1 | OCI-Ly1 |  | 0.1 µM, 120 h |  | viability | 187%
Cc1cc(=O)[nH]n1-c1nc(-c2ccc(Cl)cc2)c2c(NC(=O)c3ccccc3)nnc-2[nH]1 | 786-0 | NCI60 SRB | 10 µM |  | growth percent | 102%
